# Assay results from different studies.
# Numbered parts are unrelated; each lists some results of a single study. Changes are numbered by the printed parent chain.

# Block 1
# Target: Prothrombin, mature alpha-thrombin (F2, Homo sapiens, UniProt P00734)
# Technique: aptamer microarray, sandwich
# Molecule type: DNA with 2'F-ANA
# Matrix: in vitro
# Concentration: 200 nM
# Notes: whole 15-mer aptamer, many near background
# Together with: Cy3 exosite-II aptamer, 400 nM
# Reading: higher = stronger binding
# Sequence: GGTTGGTGTGGTTGG
Modification,mean fluorescence intensity [a.u.]
2'F-ANA at 1 2 3 5 6 7 9 10 14 15,44.7
2'F-ANA at 5 6 8 9 11 13 14,48.7
2'F-ANA at 3 5 6 7 8 9 10,55.8
2'F-ANA at 2 9 10 13 15,104
2'F-ANA at 5 7 8 10 11 12 13,74.5
2'F-ANA at 7 8 9 12 13 15,741
2'F-ANA at 2 5 6 7 8 11 12 13 14 15,51.2
2'F-ANA at 1 2 5 7 8 9 10 12 13 14 15,57.1
2'F-ANA at 2 3 4 5 7 8 11 12 15,169
2'F-ANA at 1 3 6 7 8 12 15,616
2'F-ANA at 4 5 8 11 13 14,50.5
2'F-ANA at 2 3 5 7 8 9 10 11 12 13,56.9
2'F-ANA at 1 2 5 7 9 10 11 12 13,45.8
2'F-ANA at 2 3 4 5 11 12,166
2'F-ANA at 5 6 7 8 9 11 14,68.3
2'F-ANA at 4 6 11 14,78.6
2'F-ANA at 4 8 11 12 15,496
2'F-ANA at 1 2 3 4 6 13 15,94.1
2'F-ANA at 5 6 7 8 11,71.9
2'F-ANA at 1 4 6 8 10 11 12 14,44
2'F-ANA at 1 2 3 6 7 8 12 13 15,443
2'F-ANA at 1 3 7 8 9 12 15,644
2'F-ANA at 5 7 12 14,50.8
2'F-ANA at 5 7 8 9 10 14,57.8
2'F-ANA at 3 5 7 9 11 12 14 15,80.2

# Block 2
# Target: RNA binding protein fox-1 homolog 2, RRM domain, GST-SBP tag (RBFOX2, Homo sapiens, UniProt O43251-10, residues 100-194)
# Technique: RNA Bind-n-Seq
# Molecule type: RNA
# Matrix: in vitro
# Concentration: 365 nM
# Notes: natural RNA segment, single round, ends assumed
# Reference: no-protein control
# Reading: higher = stronger binding
# Constant ends, left off below: GGGAGUUCUACAGUCCGACGAUC … UGGAAUUCUCGGGUGCCAA
# Target sequence (chain): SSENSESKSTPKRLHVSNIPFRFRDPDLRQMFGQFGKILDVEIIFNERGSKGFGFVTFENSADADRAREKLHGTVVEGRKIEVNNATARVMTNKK
Sequence,RBNS enrichment (R)
GUGCAGGCAUGCGGUAGGAAAGGUAGAUCACCUCUGGCUACUCCUGAGGCCCUGCUGAGCCAGCAAAAUGCUUUCCAGUUCCUCUUUGGCUCUCACGAUGCCCACCUAGG,1.52
GCUGGUGUGCACAGGGGCAGGCAGGUCAGCUGGCCUGGGGAAGAGCAUUGUGGCUCCUAGUGCAGCCCUGCUUCCACUCUUGGUUUAGCUGGAACCUUCCCACUCAUGGA,0.595
AAGAAUUUGUCCUGUGGGUUUGGAAUCUUGGAUUUUCCCCCUUUAUGAACUGUACUGGCUGUUGACCACCAGACACCUGACCGCAAAUAUCUUUUCUUGUAUUCCCAUAU,0.53
CAGUGAUCUGUAUUCUUAGUUUCAUUAUUUUCUUUUGAUUGAUAUGACACUAUAUAAAAUUUUCAUUUGAGAAUUUCUCAAUUGUAUCUAGUUAAAUAGCACAGUUUGGA,0.705
CUUGAGUGUGUCUGCGUGUUUACACCCGUCCCUCUGCUGGCCGCCCCCGUGCGAGCGGCACCCCUGCCCUGCCCUCCACAGAAUUGGGUUCCAAGGGCUGUUCCAGACAA,0.377
UUGAGGCUUAAACAAGCCAACAUAUGAAUAUAUGUUUUGUCUCGCUAUACUGCACUUACGCUAUCCAGUUGCAGGUAAUUUUUUGUCUGCUAGUAGUGUUCUAGAUUAUG,0.405
CACACAAAAAAAAUGCAGACAUCCUUGUGAAUUUUGAGUGCUUAUGGGGUCAUCUGGUUAUUUAGGGCAUUGAGACUGGAGCCGUGGCUCAGAUGAUUGGGGCAGAAAAG,1.49
UUCAGUUUUUAUAGUUGUGUUGGUUUUCUUAAUUGAUUUUUGUUAAUAAUACCUUAAUCCAGGGUAGGGAGACGUUGCACAAUGCAUUGCAUUAUAUAUACCUAUCACUG,0.789
UUUUUGUUUGUUUGUUUUUUGUUUUUGUUUUUUGUUGUUUCCAAAAAUAAAAGAUGAGUUAUUUCACACGUACCAGAAGAGUCCCACAGGGUCUCGUCAGUUCUUUGACU,0.698
UAGUCAGAAUAGCAGUUCUAGAGCACAGGUUCUCAGUCUAAGCUAUGGAAAAGCUCCCCUUAUCCAACAGAGUUUAAAAGUAGUGACUUGGGUUUUUGCGAGUGCUUUGU,0.432
AGACAAAACCUUUAUUCCAUGUGCUUUGCUUCAUUCUGUACAUAGCUCUUUGGCUCGUGAACCUAAUUGUAAACUUUCAGGUAUUUUUGUACAAAUAAGGGACUGAUGUU,0.349
UAAUCUUUUAAUGAUAUUUUCUUAUUAUAUUGCUACAGGCAACAUCAGUAGAAGCCUAUCUAGUUACACUAAACUAAAGAUCACAUUCACCAUUCUUACAGCCAAGUGGU,0.421

# Block 3
# Target: CCNB3, cyclin fold, Cln2 fusion (human)
# Technique: yeast growth competition, sequencing
# Matrix: yeast
# Notes: strong parent motif
# Reference: not given
# Reading: higher = stronger binding
# Parent: PKN2 docking peptide (human); VSAVRKLDFSDTM; partner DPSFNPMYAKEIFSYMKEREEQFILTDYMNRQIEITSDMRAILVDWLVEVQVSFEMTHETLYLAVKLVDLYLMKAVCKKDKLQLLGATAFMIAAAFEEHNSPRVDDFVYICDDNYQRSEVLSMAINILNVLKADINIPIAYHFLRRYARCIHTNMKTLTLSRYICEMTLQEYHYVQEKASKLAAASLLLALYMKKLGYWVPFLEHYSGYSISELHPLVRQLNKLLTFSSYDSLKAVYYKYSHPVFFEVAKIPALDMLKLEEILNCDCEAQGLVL
Variant,normalised enrichment score
VSFVRKLDFSDTM [A3F],0.798
VSAVRKLDFSVTM [D11V],2.08
VSAVLKLDFSDTM [R5L],0.291
VSAVRKLDCSDTM [F9C],0.00866
VSAVRKGDFSDTM [L7G],-0.234
VPAVRKLDFSDTM [S2P],1.14
VSAVRKLMFSDTM [D8M],0.393
VSAKRKLDFSDTM [V4K],2.29
VSAVRKLDFSWTM [D11W],0.665
VSAVRKLRFSDTM [D8R],0.465
VSAVRKLQFSDTM [D8Q],1.05
VSAVRKLDVSDTM [F9V],0.193
VSAVRKSDFSDTM [L7S],0.41

# Block 4
# Target: Histone acetyltransferase KAT6A, winged helix 1, GST fusion (KAT6A, Homo sapiens, UniProt Q92794, residues 1-85)
# Technique: protein binding microarray
# Molecule type: double-stranded DNA, one strand shown
# Matrix: in vitro
# Concentration: not given
# Notes: 8-mer, flanks averaged, mean of 2 arrays, mostly near background
# Reference: not given
# Reading: higher = stronger binding
# Construct (chain): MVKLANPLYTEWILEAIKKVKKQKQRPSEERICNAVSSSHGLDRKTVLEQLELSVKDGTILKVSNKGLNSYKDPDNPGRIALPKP
Sequence,E-score
CGCATGAG,0.138
CAACCGCG,0.328
ATAGCCCG,0.193
CAGAGCAG,-0.185
CCCTATCG,-0.0708
ACGGGACC,0.287
CTACATTC,-0.11
ATTAAGTG,-0.159
ACATCTAG,-0.16
ATAATTTC,-0.0678
CCATACGA,-0.15
AATCCAGG,-0.211
AACGCTGG,0.0993
GGAACTCC,-0.0344
TCCATCCA,-0.221
ACACTGGA,-0.16
GACATCTA,-0.132
ATCCCTAA,-0.18
AGGAGTCA,-0.278
AGAACGAC,-0.0766
AGCTCACC,-0.0043
CCAGCAGC,-0.171
GTGGCATA,-0.113
TATACGCA,0.0474
TATGTGCA,-0.111

# Block 5
# Target: Centromere-binding protein 1, full length, N-terminal tag (CBF1, Saccharomyces cerevisiae, UniProt P17106, residues 1-351)
# UniProt P17106, sequence (whole entry, looked up): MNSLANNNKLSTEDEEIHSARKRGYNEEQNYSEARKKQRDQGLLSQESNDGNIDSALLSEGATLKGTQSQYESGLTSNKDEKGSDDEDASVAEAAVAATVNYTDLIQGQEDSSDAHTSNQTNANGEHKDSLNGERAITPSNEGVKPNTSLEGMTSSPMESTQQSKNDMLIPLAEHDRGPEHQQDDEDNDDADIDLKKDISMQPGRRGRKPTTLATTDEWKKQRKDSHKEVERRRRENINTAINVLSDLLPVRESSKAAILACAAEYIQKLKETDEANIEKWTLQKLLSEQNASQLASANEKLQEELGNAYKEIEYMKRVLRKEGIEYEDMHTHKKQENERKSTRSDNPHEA
# Technique: protein-binding microarray
# Molecule type: double-stranded DNA, one strand shown
# Matrix: in vitro
# Concentration: 0.8 µM
# Notes: whole 60-bp probe, no competitor
# Reading: higher = stronger binding
# Constant ends, left off below: … GTCTTGATTCGCTTGACGCTGCTG
Sequence,fluorescence intensity [a.u.]
CTAATTCCTATGTCCCATGTGGTTGGTTGCAATTTC,617
GAATCGTCGATATGCGTCACCAGGATGTCTATTTAG,502
CTATGTTTTGATTCTGTCATGAGTATTACTTATTTC,549
GAAAAAACATAAAGCAACGTGGAATATGTCACATAG,536
GAACACAATCATCATGATGTTTTAGAGCTTCATTAG,513
CTAAATAATAACAATCAACTGAACACAACATTATTC,510
GAACAGTTACTAGCGCACGAGACAAGGCAAAGCTAG,758
GAACAGATTGGGAACCGCATGACGTGGCGGCCTTAG,536
GAAACACAGGTTGCGCACATGGGAAGTGCACTATAG,573
CTATGATAAAGGAACCATGTGATCTTACGTTGATTC,3090
GAAGATGTATACAGGCACGCTCGCACACTCACATAG,532
CTAAGAGACTACGCAGACGTGACGGTCATCTAGTTC,563
GAAACAACTTTGTCACACGTTCTAAAAATAAAATAG,779
GAAAAAAATATTGGTGGTGCAGTTATGGACTGATAG,531
GAATGTGCGGATTCTGATGTAATTGTTGGGATTTAG,479
CTATCTCTGGCCGATCACGCGCCATTGTCCCTCTTC,1440
CTATCACGTGCATGTCACGTTTTTGCCGCCGAATTC,13100
